# Assay results pooled from the literature.
# Every numbered part comes from another study and shows a few of its results, in no order. Substitutions count along the parent as printed.

# Study 1
# Target: Interferon regulatory factor 5, full length, phosphomimetic (IRF5, Homo sapiens, UniProt Q13568-2, residues 1-514, K96S/S451D/S453D/S456D/S462D)
# Method: protein-binding microarray
# Form: double-stranded DNA, one strand shown
# Medium: in vitro
# Concentration: 250 nM
# Setting: 60-bp whole probe
# Together with: salmon DNA 0.4 mg/ml
# Relative to: random background probes
# Reading: higher = stronger binding
# Constant ends, left off below: GCCTAGCAC … GTCTTGATTCGCTTGACGCTGCTG
Sequence,log fluorescence [z-score]
TTAGGACTGGGAGTGGGTTAGTGCTAG,-0.355
GACGGCCTCGGACTGGGGACGTGCTAG,-0.661
GACGGACTGGGTATAGGGACGTGCTAG,-0.619
TTTCTTTTCATTACTGCATTGTGCTAG,6.23
GACAGTATCGACTTTCGGGACGTGCTA,8.01
TTAGGTATCCTTTTCCTATAGTGCTAG,0.636
TTAGATCTCAGTATCGATAAGTGCTAG,6
TTTGGTCTCGGTCTCGGTTAGTGCTAG,1.78
TTAGGTATCGCCTATCGGTTAGTGCTA,3.91
TTAGGTATCGACTATCGGATAGTGCTA,5.21
TTAGATATCAGTTTCGGTTAGTGCTAG,10.5
GACGATATCAGGTATCGAGACGTGCTA,1.83
TTAGGACTGGGTATCGGGTAGTGCTAG,1.07
GGCGATCTCAGACTGGAGACGTGCTAG,-0.815
GACGATATCAGGCTGGAGACGTGCTAG,0.156
ATCAGTTTAATATCTAAGATTGTGCTA,1.06
CAGCACAGCTGACTACAAGCGTGCTAG,-0.688
TTAAAACTGGGGACTGGATTAGTGCTA,-0.41
TTAGGTATTGACTATCGGTTAGTGCTA,6.67

# Study 2
# Target: Ras GTPase-activating protein-binding protein 1, full length (G3BP1, Homo sapiens, UniProt Q13283)
# Sequence of UniProt Q13283 (whole entry, looked up): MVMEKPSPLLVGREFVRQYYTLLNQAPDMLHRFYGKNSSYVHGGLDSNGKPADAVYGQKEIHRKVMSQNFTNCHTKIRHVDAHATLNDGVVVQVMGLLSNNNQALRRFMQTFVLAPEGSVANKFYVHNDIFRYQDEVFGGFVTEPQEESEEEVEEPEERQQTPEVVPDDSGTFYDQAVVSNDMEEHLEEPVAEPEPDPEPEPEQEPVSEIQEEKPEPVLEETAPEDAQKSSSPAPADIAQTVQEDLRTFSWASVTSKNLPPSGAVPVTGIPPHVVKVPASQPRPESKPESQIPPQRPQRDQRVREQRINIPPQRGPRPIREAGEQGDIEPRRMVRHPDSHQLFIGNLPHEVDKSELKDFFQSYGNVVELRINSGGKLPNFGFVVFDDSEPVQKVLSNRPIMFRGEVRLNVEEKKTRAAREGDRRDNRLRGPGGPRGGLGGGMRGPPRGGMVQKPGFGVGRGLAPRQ
# Method: RNA Bind-n-Seq
# Form: RNA
# Medium: in vitro
# Concentration: 200 nM
# Setting: whole 134-nt RNA, ends assumed
# Together with: 150 mM LiCl
# Relative to: input library
# Reading: higher = stronger binding
# All molecules: 7-deaza-guanosine replaces G
# Constant ends, left off below: GGGAGUUCUACAGUCCGACGAUC … UGGAAUUCUCGGGUGUCAAGG
Sequence,log2 enrichment
GUCCUGUGCUACACAUCGUAUGUACCGAAUCGGGCCCCCGGGCCCCCGGGGCCCCCGGGAAAGUAUUAUGUUACGCCGUUCGGAUCUGCA,-2.03
CACAGACAACACGCACCCACACAGACACAGAGGGAAGGGGUUGCGAUGGGGACAGGGUGCACAGCAGGGCGGGGUAGGACCCCAGCCCCU,-1.62
GUCCUGUGCUACACAUCGUAUGUACCGAAUCGGGGAAAAAGGGGUUUGGGGUUUGGGGAAAGUAUUAUGUUACGCCGUUCGGAUCUGCAC,-0.909
CCUCAAGUCCUGUGCUACACAUCGUAUGUACCGAAUCGGAAAGGUUUGGUGGAAAGUAUUAUGUUACGCCGUUCGGAUCUGCACUUCCAG,-0.492
UCCUGUGCUACACAUCGUAUGUACCGAAUCGGGCCCCCCGGCCCCCCGGGGCCCCCCGGAAAGUAUUAUGUUACGCCGUUCGGAUCUGCA,0.0278
UAACUUUAGAGGAGGAUCUAAUGGAUAUGGCAGUGGACGUGGAUUUGGGGAUGGCUAUAAUGGGUAUGGAGGAGGACCUGGAGGUGGCAA,-0.0271
CAAGUCCUGUGCUACACAUCGUAUGUACCGAAUCGGUUUGGUUUUUUUGGAAAGGAAAGUAUUAUGUUACGCCGUUCGGAUCUGCACUUC,-0.407
UAACUUUAGAGGAGGAUCUGAUGGAUAUGGCAGUGGACGUGGAUUUGGGGAUAGCUAUAAUGGGUAUGGAGGAGGACCUGGAGGUGGCAA,0.0764
CCUCAAGUCCUGUGCUACACAUCGUAUGUACCGAAUCGGUGGAGGUUUUUGGAAAGUAUUAUGUUACGCCGUUCGGAUCUGCACUUCCAG,0.431
CCUCAAGUCCUGUGCUACACAUCGUAUGUACCGAAUCGGGUGGUGGGGUGGGGAAAGUAUUAUGUUACGCCGUUCGGAUCUGCACUUCCA,-0.165
UGGCCCUGGUGGCAUGCGGGGAGGAAGAGGUGGCCUCAUGGAUCGUGGUGGUCCCGGUGGAAUGUUCAGAGGGGGCCGUGGUGGAGACAG,0.169

# Study 3
# Target: CCNB1, cyclin fold, Cln2 fusion (human)
# Method: yeast growth competition, sequencing
# Medium: yeast
# Setting: strong parent motif
# Relative to: not given
# Reading: higher = stronger binding
# Parent: RBL2 docking peptide (human); STTRRRLFVENDS
Variant,normalised enrichment score
STTRRRLFVWNDS [E10W],0.187
STTRRRLFVQNDS [E10Q],0.225
STTRRRLFTENDS [V9T],2.03
WTTRRRLFVENDS [S1W],1
QTTRRRLFVENDS [S1Q],1.11
STTRRRLDVENDS [F8D],0.484
STTRRRLFVHNDS [E10H],0.957
STMRRRLFVENDS [T3M],0.398
STTRRRLFVENDV [S13V],0.116
STTRRELFVENDS [R6E],0.604
STTRRRLAVENDS [F8A],0.218
STTRRRLCVENDS [F8C],0.711
STGRRRLFVENDS [T3G],0.418
STTRKRLLVENDS [R5K F8L],0.396
STTRRRSFVENDS [L7S],0.206
STTIRRLFVENDS [R4I],1.7
STTRRRLFVELDS [N11L],0.886
STTRRRLFVETDS [N11T],1.02
STYRRRLFVENDS [T3Y],1.17
KTTRRRLFVENDS [S1K],0.764

# Study 4
# Target: RING finger protein unkempt homolog, zinc fingers 1-6, GST-SBP tag (UNK, Homo sapiens, UniProt Q9C0B0, residues 30-357)
# Sequence of UniProt Q9C0B0 (30-357, looked up): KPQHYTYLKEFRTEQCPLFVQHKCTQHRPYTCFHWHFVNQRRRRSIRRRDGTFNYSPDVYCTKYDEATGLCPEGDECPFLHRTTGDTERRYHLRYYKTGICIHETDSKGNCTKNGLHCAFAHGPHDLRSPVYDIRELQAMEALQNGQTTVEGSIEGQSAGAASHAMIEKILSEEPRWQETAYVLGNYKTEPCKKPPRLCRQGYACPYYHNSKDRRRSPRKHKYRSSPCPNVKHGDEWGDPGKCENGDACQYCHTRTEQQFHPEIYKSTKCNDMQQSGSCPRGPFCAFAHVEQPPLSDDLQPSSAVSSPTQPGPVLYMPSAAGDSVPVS
# Method: RNA Bind-n-Seq
# Form: RNA
# Medium: in vitro
# Concentration: not given
# Setting: RNA with constant flanks, human and mouse sites, ends assumed
# Relative to: input RNA pool
# Reading: higher = stronger binding
# Constant ends, left off below: GGGAGUUCUACAGUCCGACGAUC … CAACAGAGGAUUGAGCAUCA
Sequence,bound/input enrichment
GGAGCUUUAUCUAAGGCUAUUGACAGAGGAACAAGGGGCAUUAGUUUUGUCCUCAGUGCGUUAGUAUUUAAUCUUCUCCCUAUUGUGUUUGAGAUGAUGCUUGUCAGUAGUGUUUUGUAU,15.4 ratio
UCAAAGGAGGCUAUGGAAAGGGCAAAUGGAAUGGAGCUGGAUGGUAGAAGAAUUCGGGUGGAUUAUUCUAUAACCAAGAGAGCGCACACACCAACACCAGGCAUCUACAUGGGCAGACCA,0.231 ratio
GAAUUGAUUAAGGAAAAACUUAUUCUUCCCUAUGUGGAACUGGAUCUGCAUAGCUAUGAUUUAGGCAUAGAGAAUCGUGAUGCCACCAAUGACCAGGUCACCAAAGAUGCUGCAGAGGCU,0.505 ratio
UGGCGCCUGCGCUCCCCACUCGUGUUUUUAAGUGUAUUUUUAUAAGAUACAUGUAUUUACAAUUGAGCUUUUGUUACAUAAUGCUGAAAUGCUACUGGAGAUUAUGAAAAAUGUUUCAAU,0.145 ratio
UCUUCCCUUUUCGGGAUUCUGUCCCCUACUAGUGACCUCAUGCUGGCCAGUGUUCUGUGGGACAGAGGAGGAUCAAGUUUCUACACCCUGACGAGUUCAAACAUCAGCAAAUGGGAACUG,0.106 ratio
UGGCUACUAUAAAACUAUGUACCACUCUCAGAAUAUUCUUAGGCUUUUUUUUUUUCAAGUUAUAGAUUUGCUUAAAGUGAGGUUUUUUGGUGUGUGCUUUUUUGUUGUCUUUUGACCCUU,3.52 ratio
UGACUGUUAUGAUUAUCAGAAUGUCUUAACUUUUUAGGGCAAAGUUAACACUGAAAGUUCUAGCUUAAGUGUUGAAACUUUUGUGGGAAAAAAAAAUCACUUUUGAAACUCAGACUUCAG,0.16 ratio
AAAAGUUUCCUGAAGUCUGAAUUCAGUGAGGAAAACCUUGAGUUCUGGGUUGCCUGUGAGAAUUACAAGAAGAUCAAGUCCCCCAUCAAAAUGGCGGAGAAGGCAAAGCAAAUUUAUGAA,0.304 ratio
AUGAAAAGACUAAUUGGAUGAAUACUAUCUUUCUAAUGAAUUUGUGAUUAAAUAUAUAAUAGUUGUUGAAAAUGAGUAACUUUGCGUUCUCCCCCUAGGUUGUUCUUAGAUGCCUGGCUU,21 ratio
AAGAACUAAUUGCAGAGAUAGGUUCAUUAUCUCUUCAUUGUACCAUAGAUGAGAAGCGGUUAGCUGGCUAUUGUCAAGCAUGUGAUGUUCUUGUACCUUCUUCUGAUAGUACAUCUCAAC,0.229 ratio
GUCAUCGAUGCGGGAGUAUGUAGGAGACUUGUGGAACUGCUGAUGCAUAAUGAUUAUAAAGUGGUUUCUCCUGCUUUGCGAGCUGUGGGAAACAUUGUCACAGGGGAUGAUAUUCAGACA,0.307 ratio

# Study 5
# Target: ABI1, truncated, D143A, DHFR fusion (Arabidopsis thaliana)
# Method: DHFR PCA, deep sequencing
# Medium: yeast
# Setting: methotrexate growth selection, single substitutions
# Together with: (+)-ABA 200 µM
# Relative to: wild-type fitted maximum
# Reading: higher = stronger binding
# Parent: PYL1, truncated, DHFR fusion (Arabidopsis thaliana); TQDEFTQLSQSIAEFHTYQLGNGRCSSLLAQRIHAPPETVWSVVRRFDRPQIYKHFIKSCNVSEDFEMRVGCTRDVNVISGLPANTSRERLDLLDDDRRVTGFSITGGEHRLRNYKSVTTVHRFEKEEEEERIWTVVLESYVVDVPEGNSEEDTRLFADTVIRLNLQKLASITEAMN; partner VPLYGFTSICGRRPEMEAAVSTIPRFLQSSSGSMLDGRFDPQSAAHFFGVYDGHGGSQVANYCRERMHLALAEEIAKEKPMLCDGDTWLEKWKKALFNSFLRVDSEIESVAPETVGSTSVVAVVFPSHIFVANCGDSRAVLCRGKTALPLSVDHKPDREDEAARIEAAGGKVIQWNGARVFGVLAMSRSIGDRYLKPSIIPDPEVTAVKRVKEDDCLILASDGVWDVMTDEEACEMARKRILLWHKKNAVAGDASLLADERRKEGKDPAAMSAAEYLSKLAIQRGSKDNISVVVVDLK
Variant,relative binding score
S117P,12.6%
P37K,38.1%
V70K,96.2%
E67Y,99.3%
I162H,8.29%
M68G,92.8%
S42T,98.6%
E131R,104%
V145C,86.5%
E147R,88.9%
L156E,91.8%
L164S,99.7%
L112F,106%
L29Y,53.2%
D97T,111%
Q10M,92.1%
L169W,-6.35%
A13Q,105%
G148R,73.1%
N85L,103%
